Results of several laboratories.
A part holds a random share of what one study measured. Changes are numbered by the printed parent chain.

Series 1
Target: TAR DNA-binding protein 43, full length, His tag (TARDBP, Homo sapiens, UniProt Q13148, residues 1-414)
Technique: RNA Bind-n-Seq
Form: RNA
Sample: in vitro
Tested at: 20 nM
Notes: 6-mer, flanks averaged, single round
With: 150 mM KCl
Baseline: input library
Direction: higher = stronger binding
Measurement: 6-mer enrichment (R)
CGGGGG: 7.89
UGGGAU: 1.76
CAUGGG: 2.12
CGUAAU: 0.605
GCAUAA: 0.743
AGUUAA: 0.604
CCGGCC: 0.83
UCCGCA: 0.644
CAAGCG: 1.03
UGCAUU: 0.615
GCUGUC: 0.79
CAAUGA: 0.664

Series 2
Target: CCNB2, cyclin fold, Cln2 fusion (human)
Technique: yeast growth competition, sequencing
Sample: yeast
Notes: weak parent motif
Baseline: not given
Direction: higher = stronger binding
Measurement: normalised enrichment score
Starting sequence: PKN2 docking peptide (human); VSAVRKLDFSDTM; partner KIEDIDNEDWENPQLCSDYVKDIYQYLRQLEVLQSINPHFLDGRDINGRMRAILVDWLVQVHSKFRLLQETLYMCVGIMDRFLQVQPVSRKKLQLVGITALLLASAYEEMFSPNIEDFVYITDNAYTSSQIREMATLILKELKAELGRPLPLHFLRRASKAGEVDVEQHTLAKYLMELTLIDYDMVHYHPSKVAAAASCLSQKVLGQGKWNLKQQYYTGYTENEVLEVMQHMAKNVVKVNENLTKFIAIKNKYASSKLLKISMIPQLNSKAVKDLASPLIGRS
T12P: 0.732
F9W: 0.609
D11P: 0.385
D8Y: 0.262
F9P: 0.159
D11N: 0.449
R5N: -0.34
V4C: 1.21
D8C: 0.495
S10K: -0.23
T12M: 0.561
T12I: 0.904
V4N: 0.249
S10N: 0.425
V4A: 0.413
S10T: 0.66

Series 3
Target: RING finger protein unkempt homolog, zinc fingers 1-6, GST-SBP tag (UNK, Homo sapiens, UniProt Q9C0B0, residues 30-357)
UniProt Q9C0B0, sequence (30-357, looked up): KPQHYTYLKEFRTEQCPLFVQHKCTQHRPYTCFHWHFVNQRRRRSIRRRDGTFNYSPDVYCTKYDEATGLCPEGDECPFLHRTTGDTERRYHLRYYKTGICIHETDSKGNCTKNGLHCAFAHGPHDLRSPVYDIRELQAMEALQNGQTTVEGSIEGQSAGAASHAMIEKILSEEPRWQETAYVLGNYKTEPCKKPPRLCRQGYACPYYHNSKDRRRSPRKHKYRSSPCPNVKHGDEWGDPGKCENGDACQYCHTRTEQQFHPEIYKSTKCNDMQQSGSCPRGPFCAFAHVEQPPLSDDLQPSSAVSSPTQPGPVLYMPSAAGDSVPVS
Technique: RNA Bind-n-Seq
Form: RNA
Sample: in vitro
Tested at: not given
Notes: RNA with constant flanks, human and mouse sites, ends assumed
Baseline: input RNA pool
Direction: higher = stronger binding
Measurement: bound/input enrichment
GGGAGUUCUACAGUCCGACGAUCCCGGGUCAGCUGAGGUGGACGGCCUCGGCAAGCGGGUUUUUUUCCCCUAGAGUUGUAUAUAUAGAGCAUCCUGGACUCCACAAUGAACGGACAGUUGGACCUAAGUGGGAAGCUGAUUAUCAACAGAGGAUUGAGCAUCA: 1.38 ratio
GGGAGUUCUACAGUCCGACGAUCCGAGACAAAGCAUCUAGAAAUAUGAGAGGGUCACGGAUGAAUGGACUUCCAAGUCCCACUCAUAGUGCCCACUGUAGCUUCUACAGAACCAGAACCUUGCAGGCAUUAAGUAAUGAGAAGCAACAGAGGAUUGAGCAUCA: 0.141 ratio
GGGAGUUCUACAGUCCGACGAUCGAUAUAAAGACUAUAUUUUCUGAAUUUAUCACAAUCGAAAUGUUAUUUCACGGCAAAGCUUUAGAGGUCUACACUGCUGCCUACCAGAAUAUACAAAACAUUGAUGAAGAUGAAGAUUUACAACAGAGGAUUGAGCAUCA: 0.329 ratio
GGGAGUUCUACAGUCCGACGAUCAACUUUGCAUUUAAAGAGCAAAUCCAGGCCCACACUCUGUUCACGCCGCUGCUCAUUGGCUUUGUGGUUGCAGCUGGCGCGAUGGGGAUCAUUGUGAUGGUGCUCACCUACAAAUAUUUGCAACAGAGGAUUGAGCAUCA: 0.216 ratio
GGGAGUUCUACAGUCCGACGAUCUUGAAACAAGUUCUCGGCCAGAUGGUGAUUGAUGAAGAGCUGUUGGGAGAUGGACACAGCUAUAGCCCUAGAGCUAUUCAUUCAUGGUUGACAAGAGCCAUGUACAGCCGCCGCUCCAAGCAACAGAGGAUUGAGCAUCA: 0.16 ratio
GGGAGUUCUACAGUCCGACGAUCACAAUUGGUUUUAACGUGGAAACUGUAGAAUAUAAAAAUCUAAAAUUCACUAUUUGGGAUGUAGGUGGAAAACACAAAUUAAGACCAUUGUGGAAACAUUAUUACCUCAAUACUCAAGCUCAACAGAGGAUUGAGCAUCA: 0.265 ratio
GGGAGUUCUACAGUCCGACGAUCAAGUUAGAGAUAAUGUCUACUGGAAAUUUUACCUUUGAGUCAAGUUUUGUGUCAGUGCUUUAGCAUUUUUGAGAAUGUGUUUGAUAUCACAGUGUUUGUAAAUUCGAUGAAAAUGUAUUUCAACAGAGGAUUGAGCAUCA: 1.19 ratio
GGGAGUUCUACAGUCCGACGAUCCCUGCGAUUGUUCAUAUAAACCACCAGCCAUACUUGGAAAGAGGAGAUGGUCCAAUUUGUCUAGUGCUGGCUCCUACCAGAGAGCUUGCGCAGCAGGUGCAGCAGGUGGCUGACGAUUAUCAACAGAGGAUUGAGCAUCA: 0.163 ratio
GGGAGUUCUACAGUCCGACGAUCCAGAGGGUGCAACAGUUACAAGGAGUUUACAACUUGCAAGAACAGCACUUCUGGACACUCUGUUCUGAUGUUUACGUGGGAACCUUGAAGCUCGUGGUAGCCCCUGAUGCUGACGCCAGGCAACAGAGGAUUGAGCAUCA: 0.106 ratio
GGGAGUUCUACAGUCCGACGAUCUUAUUACUUCAAGCUGUCAAUUCUCACUGUUUCCCAGCAUUCCUAGCUAUUCCACCUGCACAGUUCAAGCUGGUUUUGGAUUCUAUUAUUUGGGCUUUUAAACAUACUAUGAGGAAUGUUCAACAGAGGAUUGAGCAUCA: 0.38 ratio
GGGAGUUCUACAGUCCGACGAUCGCUGUUUCCUUCUGAGCUGUGGAGAUCACACCAUCCUGUCGCCCUGCAAAUAAUUGUGGAUCAUUUACCUUGAGGCUGCAGAGUGGGUUCCAGGACUCUUACUUCACUGUGGAGGGACUUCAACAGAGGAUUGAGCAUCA: 0.132 ratio

Series 4
Target: Histone acetyltransferase KAT6A, winged helix 2, GST fusion (KAT6A, Homo sapiens, UniProt Q92794, residues 85-181)
Technique: protein binding microarray
Form: double-stranded DNA, one strand shown
Sample: in vitro
Tested at: not given
Notes: 8-mer, flanks averaged, mean of 2 arrays, mostly near background
Baseline: not given
Direction: higher = stronger binding
Measurement: E-score
Residues (chain): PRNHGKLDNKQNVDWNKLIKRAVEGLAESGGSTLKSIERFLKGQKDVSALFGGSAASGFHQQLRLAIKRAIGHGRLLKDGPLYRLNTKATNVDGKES
CGGTTGAA: -0.051
AACGTTAA: -0.0847
CCCTCAAG: -0.0309
ACAATCAG: -0.00207
ATCGACTG: -0.107
AACAGGAT: -0.0976
AACGCGAT: -0.029
GGAACGAC: -0.0521
AAATCACA: 0.0228
ACCGTATG: -0.0644
GATTGGAA: 0.0943
TCGGACCA: 0.068
CAGTACTA: -0.0456
AGTAGACG: 0.0721
CTCAAGGA: -0.0229
CCCTCTTC: -0.166
CCTCTTTC: -0.0298
CATTTGCA: -0.0361
TAGATGGA: -0.0246
GCGGTTAA: 0.134
GAGGACGA: 0.197
ACTTTCTC: 0.0245
CCGAACGG: 0.272
CTCCTTCA: -0.0775
GTTGTTCA: -0.12

Series 5
Target: RNA binding protein fox-1 homolog 2, RRM domain, GST-SBP tag (RBFOX2, Homo sapiens, UniProt O43251-10, residues 100-194)
Technique: RNA Bind-n-Seq
Form: RNA
Sample: in vitro
Tested at: 365 nM
Notes: natural RNA segment, single round, ends assumed
Baseline: no-protein control
Direction: higher = stronger binding
Measurement: RBNS enrichment (R)
Target sequence (chain): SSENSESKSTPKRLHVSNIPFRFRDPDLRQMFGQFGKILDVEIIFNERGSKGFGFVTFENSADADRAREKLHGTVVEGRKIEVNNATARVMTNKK
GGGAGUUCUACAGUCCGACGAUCGCAUUGUAAUCGCUUGGUUAAUUGUCCGACAUUGGUCCAGGAACAACUUGUCUUUUCAGCCGGCUGACCUGCAGCCUGUACAGCUCUGAAGCAUCUUUAAAUACGAUAGAUGGAAUUCUCGGGUGCCAA: 0.976
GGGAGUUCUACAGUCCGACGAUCAGCAAGUGAUCAGGUGUCUAUAACAUUUUUCAUUCUCUCUGGAAACAGACUCAGGUUUCUUUGGACCAAAUCCAAAAGAACACAUAGCUGUAACACAGCUGUAGCUGCCUUGGAAUUCUCGGGUGCCAA: 0.244
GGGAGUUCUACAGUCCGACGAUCACAGUAUUGGGUCUUCCGAUUUAUAAACAUGGAAUGCCUCUCCAUUUAUUUUGAUCUUUAAUUUCUCUCAGCAAUGUUGUAUAAUAUCAGAAUAUGUCUUGUACUUCUAUUGGAAUUCUCGGGUGCCAA: 0.659
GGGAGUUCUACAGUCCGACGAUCUGUGAGUUGCAACUCCUUUGUCAAACCUCUAGCUCAACUCAAAACAGUAGCAAAAUUAAUUGUGAAGUAGCAAUGAAAAUAACCUUCUGGUUGGGGGCCACCAUGAGGAAUGGAAUUCUCGGGUGCCAA: 0.371
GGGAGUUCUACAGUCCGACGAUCGCAGGAUGCCCUGUUGGGGGCUUCAGGUCUCUGUGGGUGGGAAUGCAAGUGAACUUGGGAGGGGGCACGGGCCUGUAGAUCAGGGAUAGCGCUGUUGAUCCCCUCUCUGUUGGAAUUCUCGGGUGCCAA: 0.514
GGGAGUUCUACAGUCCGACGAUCGAAGAUUAACAACAGUCUCUCCCCCAGAACCUCAUUAUUUAUUUAUUUGGCAUUCCAGAAAGGAUUGCUGAUAAUUUAGAUGAUGCAGGGAAGGCCACUGUUAGUAAGGUUGGAAUUCUCGGGUGCCAA: 0.335
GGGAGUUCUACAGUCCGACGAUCCCCACUGAAUUUUGUAACUUCCUGUGUUUGCAUCCUCUGUUCCUAUUCUGCCCUUGCUCUGUGUCAUCUCAGUCAUUUGACUUAGAAAGUGCCCUUCAAAAGGACCCUGUUGGAAUUCUCGGGUGCCAA: 0.513
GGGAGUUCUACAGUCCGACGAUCUUUCUAGAAAGUUAGGAUUGGGCAGAUAGUUGAGUCCUAAUCUAUCAAAUCAUUGUUGCCUCUCAUACCAAAAUGUUCUUACCCACUGUCCUUCCCCCUUCUCUGCUUUGUGGAAUUCUCGGGUGCCAA: 0.671
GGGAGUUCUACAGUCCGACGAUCAUUUUCACGGGUGUGGGCACAUGGGUGUGGCACCUGGACGUGUGCAGCAUGUGGCGGUCUGUGUGAAGCCACCGUGCUUCUCUUUGGGGGGCCGCGAGAUCUAGCAUCUCUGGAAUUCUCGGGUGCCAA: 6.65
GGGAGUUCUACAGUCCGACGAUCGUGGCCCCUGAAGGUUGCUUUAAGGGGAAAGUAUGUUCUCAUGUCUUCACCCCUCCCUAGAUCUCACCUAAACAUGCUGUCCCUAAUAAAGCUGGAUAAGAAGCUGCUGUUGGAAUUCUCGGGUGCCAA: 0.337
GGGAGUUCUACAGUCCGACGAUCAACAUGGGUGAUUACUUGCAGCCAUCCCAGGUGUUUUAGUUUUGCCAAGCUGACUGUGGUAUGUAGCCACUUCAGGGGUUGCGCUUCUCACUAGGUUGGCGGUACAUGUGUGGAAUUCUCGGGUGCCAA: 0.383
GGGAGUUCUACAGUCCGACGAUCGACCAGGCUGAGUCAGUAAAGGAGGCGCGGGCCUCGACGCCCACGCUGGCAGCUUUGACAGAAACUCUUCCGUGGUCGGCCUUUCACCUCUUCACUUUCGCUUGGUCCCAUGGAAUUCUCGGGUGCCAA: 0.319

Series 6
Target: CREBL2, bZIP domain (human)
Technique: DHFR protein complementation
Sample: yeast
Notes: single substitutions, most at no-binding floor
Baseline: wild-type JUN-FOS pair
Direction: higher = stronger binding
Measurement: binding fitness
Starting sequence: JUN, bZIP domain (human); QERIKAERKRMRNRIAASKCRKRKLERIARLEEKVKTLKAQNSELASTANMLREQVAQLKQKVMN; partner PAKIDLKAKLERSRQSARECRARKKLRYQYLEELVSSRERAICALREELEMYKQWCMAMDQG
K39T: -1.54 natural log
R30E: -1.4 natural log
E54Q: -1.47 natural log
N42K: -1.55 natural log
A29R: -1.41 natural log
I28E: -1.52 natural log
R53L: -1.51 natural log
Q41V: -1.32 natural log
E54K: -1.57 natural log
V56M: -1.47 natural log
V35D: -1.59 natural log
K36M: -1.24 natural log
K39V: -1.52 natural log
K39W: -1.52 natural log
I28Q: -1.46 natural log
S43H: -1.52 natural log
L45E: -1.44 natural log
V56E: -1.53 natural log
T48P: -1.52 natural log
E32A: -1.52 natural log

Some of these lines once more (series 6):
E54K: -1.57 natural log
V56M: -1.47 natural log
V35D: -1.59 natural log
K36M: -1.24 natural log
K39V: -1.52 natural log
K39W: -1.52 natural log
I28Q: -1.46 natural log
S43H: -1.52 natural log
L45E: -1.44 natural log
V56E: -1.53 natural log
T48P: -1.52 natural log
E32A: -1.52 natural log
